Assay results pooled from the literature.
Numbered parts are unrelated; each lists some results of a single study.

Series 1 — technique: RNA Bind-n-Seq; molecule type: RNA; matrix: in vitro; concentration: 1 µM; notes: whole 134-nt RNA, ends assumed; added: 150 mM KCl; baseline: input library; direction: higher = stronger binding; measurement: log2 enrichment
Target: Ras GTPase-activating protein-binding protein 1, C-terminal RGG region (G3BP1, Homo sapiens, UniProt Q13283)
UniProt Q13283, sequence (whole entry, looked up): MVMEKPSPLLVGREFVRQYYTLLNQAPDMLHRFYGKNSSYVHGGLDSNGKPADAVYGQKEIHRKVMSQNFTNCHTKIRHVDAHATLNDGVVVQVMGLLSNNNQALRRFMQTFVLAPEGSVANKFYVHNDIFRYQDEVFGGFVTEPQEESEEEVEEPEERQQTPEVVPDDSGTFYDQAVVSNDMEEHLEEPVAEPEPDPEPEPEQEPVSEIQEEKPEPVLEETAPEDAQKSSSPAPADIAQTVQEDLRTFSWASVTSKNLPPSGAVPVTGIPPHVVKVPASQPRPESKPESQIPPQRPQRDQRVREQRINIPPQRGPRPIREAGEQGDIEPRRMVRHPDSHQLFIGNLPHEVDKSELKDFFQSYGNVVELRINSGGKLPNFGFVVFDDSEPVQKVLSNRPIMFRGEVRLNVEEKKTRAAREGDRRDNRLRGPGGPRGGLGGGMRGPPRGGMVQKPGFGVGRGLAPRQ
Shared flanks, not repeated: GGGAGUUCUACAGUCCGACGAUC … UGGAAUUCUCGGGUGUCAAGG
GCAGGAAGUAAAAACAAAUGGAAAUGCUUCGGAUAGUGGCAGGGGUGGGGGUUGCUAAGGAAUGGGUGGGAUGGGAGUGGGUAAAGAGUU: 1.57
GUCCUGUGCUACACAUCGUAUGUACCGAAUCGGGGUUUUUGGGGUGGGGUUUUUGGGGAAAGUAUUAUGUUACGCCGUUCGGAUCUGCAC: 1.81
CUCAAGUCCUGUGCUACACAUCGUAUGUACCGAAUCGGAGGUUUGGUUUUUGGAAAGUAUUAUGUUACGCCGUUCGGAUCUGCACUUCCA: -1.11
AGUCCUGUGCUACACAUCGUAUGUACCGAAUCGGAAAAAAAGGAAAGGUUUUUUUGGAAAGUAUUAUGUUACGCCGUUCGGAUCUGCACU: -2.39
UGGCCCUGGUGGCAUGCGGGGAGGAAGAGGUGGCCUCAUGGAUCGUGGUGGUCCCGGUGGAAUGUUCAGAAGUGGCCGUGGUGGAGACAG: 2.91
AGUCCUGUGCUACACAUCGUAUGUACCGAAUCGUGUGUGUGUGUGUGUGUGUGUGUGAAAGUAUUAUGUUACGCCGUUCGGAUCUGCACU: 1.45
ACCAUGCAGGUGGGCAUCUUUGGGAAGUGGGGCAAGGGGGGGAUAGGGAGGGGGGUAACACUUUGGGAACAGGUAAACCCAGGUCGUUUC: -0.883
UCCUGUGCUACACAUCGUAUGUACCGAAUCGGGGUUUUUGGGGAAAAAAAGGGGUGGGGAAAGUAUUAUGUUACGCCGUUCGGAUCUGCA: 1.39
GUCCUGUGCUACACAUCGUAUGUACCGAAUCGGAAAAAAAGGAAAAAAAGGAAAAAGGAAAGUAUUAUGUUACGCCGUUCGGAUCUGCAC: -1.64
CAAGUCCUGUGCUACACAUCGUAUGUACCGAAUCGGGCCCGGGGCCCGGGCCCGGAAAGUAUUAUGUUACGCCGUUCGGAUCUGCACUUC: -2.14
CAAGUCCUGUGCUACACAUCGUAUGUACCGAAUCGGAGGUUUUUGGAAAAAAAGGAAAGUAUUAUGUUACGCCGUUCGGAUCUGCACUUC: -1.62
AGUCCUGUGCUACACAUCGUAUGUACCGAAUCGGGAAAGGGAAAGGGUUUUUUUGGGAAAGUAUUAUGUUACGCCGUUCGGAUCUGCACU: 0.275
ACCAUGCAGGUGGGCAUCUUUGGGAAGUGGGGCAAGGGGGGGAUAGGGAGGGGGGUAACACUUUGGGAACAGGUGGUCCCGGGUCGUUUC: 1.73
CCUCAAGUCCUGUGCUACACAUCGUAUGUACCGAAUCGGAGGUUUGGAAAGGAAAGUAUUAUGUUACGCCGUUCGGAUCUGCACUUCCAG: -0.877

Series 2 — technique: RNAcompete; molecule type: RNA; matrix: in vitro; concentration: 20 nM; notes: 7-mer, probes averaged, single round; baseline: mean of 7-mers; direction: higher = stronger binding; measurement: 7-mer Z-score
Target: PABPC1L2, full length, GST fusion (mouse, UniProt A0ABA7IW68)
Construct (chain): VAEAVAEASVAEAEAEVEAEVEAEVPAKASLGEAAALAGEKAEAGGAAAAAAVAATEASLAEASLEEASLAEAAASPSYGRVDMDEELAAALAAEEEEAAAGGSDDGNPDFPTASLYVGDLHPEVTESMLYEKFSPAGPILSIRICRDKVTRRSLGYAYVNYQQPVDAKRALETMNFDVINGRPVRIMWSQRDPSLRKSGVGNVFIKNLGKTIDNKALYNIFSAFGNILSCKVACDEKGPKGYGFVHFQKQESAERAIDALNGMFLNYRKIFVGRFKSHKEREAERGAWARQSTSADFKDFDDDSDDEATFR
CGACGUU: -0.141
UACCAGU: -0.237
ACCAAGA: 0.196
GAUAGGG: 0.193
AGUAGAC: 0.242
CGCCCUA: -0.38
UCCUAAG: -0.266
GGGCUCG: 0.0787
UGACCUG: -0.168
CUUUUUU: -0.0681
UCGCCAA: -0.307
UAACUGG: -0.132
AGUAUAG: -0.0264
ACUCUAU: -0.141
GUUCUGC: -0.284
GCGGUUG: -0.0971
UACCCGG: -0.213
UCACGCG: -0.269
UGAACAA: 0.512
AUCGCCC: -0.293
UGGACUC: -0.0228
UGGCGGA: 0.292
GUAAGUU: -0.246
UUUGGUU: -0.302
CUUUCGU: -0.507

Series 3 — technique: universal PBM; molecule type: double-stranded DNA, one strand shown; matrix: in vitro; concentration: 600 nM; direction: higher = stronger binding; measurement: E-score
Target: Sal-like protein 4, full length isoform A (SALL4, Homo sapiens, UniProt Q9UJQ4, residues 1-1053)
UniProt Q9UJQ4, sequence (whole entry, looked up): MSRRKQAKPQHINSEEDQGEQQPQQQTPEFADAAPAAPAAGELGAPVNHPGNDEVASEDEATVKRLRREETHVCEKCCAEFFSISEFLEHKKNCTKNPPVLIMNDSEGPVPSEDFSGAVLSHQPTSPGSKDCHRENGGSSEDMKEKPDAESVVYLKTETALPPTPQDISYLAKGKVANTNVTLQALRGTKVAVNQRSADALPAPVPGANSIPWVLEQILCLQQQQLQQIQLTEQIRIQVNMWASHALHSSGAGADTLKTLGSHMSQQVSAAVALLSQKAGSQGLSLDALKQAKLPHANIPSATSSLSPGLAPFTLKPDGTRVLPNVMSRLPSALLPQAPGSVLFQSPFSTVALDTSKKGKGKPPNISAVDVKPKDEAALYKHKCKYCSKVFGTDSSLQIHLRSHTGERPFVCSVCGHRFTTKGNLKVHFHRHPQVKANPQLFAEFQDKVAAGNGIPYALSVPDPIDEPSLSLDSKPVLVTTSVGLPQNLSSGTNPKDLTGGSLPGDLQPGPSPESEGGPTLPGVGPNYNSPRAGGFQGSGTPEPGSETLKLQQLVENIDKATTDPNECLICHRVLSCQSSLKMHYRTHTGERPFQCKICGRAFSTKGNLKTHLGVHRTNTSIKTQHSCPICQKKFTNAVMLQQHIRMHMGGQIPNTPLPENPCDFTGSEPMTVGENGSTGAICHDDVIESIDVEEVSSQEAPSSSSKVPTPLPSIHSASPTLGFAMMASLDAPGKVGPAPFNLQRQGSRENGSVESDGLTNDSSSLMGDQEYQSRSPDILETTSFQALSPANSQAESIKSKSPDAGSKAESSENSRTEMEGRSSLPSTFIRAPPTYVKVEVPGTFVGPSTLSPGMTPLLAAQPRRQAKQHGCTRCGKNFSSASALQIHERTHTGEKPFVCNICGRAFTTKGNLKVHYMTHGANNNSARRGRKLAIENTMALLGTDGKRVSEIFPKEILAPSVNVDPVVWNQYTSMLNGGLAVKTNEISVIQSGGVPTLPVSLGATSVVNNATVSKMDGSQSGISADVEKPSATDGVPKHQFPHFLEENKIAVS
Notes: 8-mer, flanks averaged, mean of replicates
CCGGCGCC: -0.338
ACGCCTAG: -0.0396
ATCAAGTC: 0.159
TGTTATAA: 0.367
CGCTCCCA: -0.188
TAACTAGA: 0.32
AGCCACCA: -0.066
AAACTTGT: 0.304
CTCGGCAG: -0.205
ACAACCAG: 0.0173
CGAAACCA: 0.0811
AGAGTTAC: 0.0354
CCCCGTAA: -0.058
AGGGAAAC: -0.088
AAGAAGTC: 0.113
AACAAACA: 0.21
GGGTCTAA: -0.155
CACTCATC: 0.0882

Series 4 — technique: RNA Bind-n-Seq; molecule type: RNA; matrix: in vitro; concentration: 365 nM; baseline: no-protein control; direction: higher = stronger binding; measurement: RBNS enrichment (R)
Target: RNA binding protein fox-1 homolog 2, RRM domain, GST-SBP tag (RBFOX2, Homo sapiens, UniProt O43251-10, residues 100-194)
Notes: natural RNA segment, single round, ends assumed
Shared flanks, not repeated: GGGAGUUCUACAGUCCGACGAUC … UGGAAUUCUCGGGUGCCAA
Construct (chain): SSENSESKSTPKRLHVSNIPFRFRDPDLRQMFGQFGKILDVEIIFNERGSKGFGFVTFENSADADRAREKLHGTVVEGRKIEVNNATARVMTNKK
AAGAGGAUAUUUGUCAUUUCCUUAAGGCUCUGGAGUGUUGUGUUCGAUUCUGCACAGCCCAGCCUCCCCGAGGGCCUUUCCAAGCACAGUGGGGAUUUCUUAGAACAGGA: 0.287
UUUAGAAUCUUGUAUUUAAGUUUUGAUUUUCAAAUGUUCUGCUUCAUGUGUCUGUGAAGAAUUGUACUUUAAGUGUGUGUCCUCUGAGGUGCUUGAGAAAGUGUACACUG: 1.4
GCAGGAGAGCUGCCCCCUUUCACGGGGUUGGGGAAGGGUCCCCCUGGCCUCCAGCAGGAGCACAGCUCAGCAGGGUCCCUGCUGCCCACCCCUCUGAGCCUUUUCUCCCC: 0.583
AAAUUAUGCAAUCACCAUAACUUUGUAACUCCUGAGUGUCCUAAGGGAGUACACAUCUUUGAAGCUGAUUUGUUGAUACUCGUGUAAUAAAUGGUUAAAUAUCAAAUGCU: 1.02
CUUAACCAGCUCCUGAUCUCAAGAACACUAAAAGGCUAGCCGUUGUCUGUCUAGAGUGAAUACUUCACAGAUCUCAUUUAGGGAGAGCCUGGUCUAUGGACUAAGCUGAA: 0.32
AGCUAUUAGUAUAUUUAAAAACUGUUCAAAAGCAAAAGAGAAGGAACAGGAAUGAAAGGAAACCUUCCCUUAACUCUUUCUGCUUCCCAUAGCAGGUCUGGUUCCUGCUC: 0.359
ACUUUUAAGAUGUUACAGAUACAAAGAAAUGAUGUGGGUGUCAGGAGACUAAAGGAUGUUGAAGGCUACACAUUCAACCUUUUGUUAGGUGUUUCCUUUAAGCUACUCAG: 0.402
UGAGGGCAGCUGCUCUCCCAGCAUGUGCUGGCCACUCCAUCCCAAAAGCCCCCAUCAGAACUGCUGGUACUUGAAUCCUCAGAUACUUUAUAGGAGCCCUUGAAUGAAGC: 1.97
GCUUCAAUGAUGCUGAGUCUGGAAAAGGGGAGGAGACCCUUGGGAGGACUCCAGGCAGCUGUGCUCCCAGGGCUCAUGUUCUCUACUGGAUUAGGGAUAGGCACCUCUGA: 0.457
GCACCCAGACUGCUUCGUGUGCAGGGAAUGCCUUGCGCCCUUCUCCGGAGGCAGCUUUUUUGAGCACGAGGGUCGCCCUUUGUGUGAAAACCAUUUCCAUGCUCAGCGUG: 0.455
GGUGCGGGAAGAAAUGGCCUUUAAUUACUGAUUGUAUUUGGUACAUAUUGUGUGAUACUUGAAGAGAUAAAAGGGACUUACCAGCCCUUAAUUGAAAUCUAAGCUUUUUA: 0.433
UGGAAUUAUUCAUCCCCUUUGAAAGAUGAGAAGGUUGAGAUGCAAAGAGUCUACCUUUCCAAGUUCUCACUGCUGGAAAGAGCUAGAAGCACAGUUCAAAGUUCUGGCUU: 0.606

Series 5 — technique: protein-binding microarray; molecule type: double-stranded DNA, one strand shown; matrix: in vitro; concentration: 2200 nM top; notes: 60-bp whole probe; added: salmon DNA 0.4 mg/ml; baseline: random background probes; direction: higher = stronger binding; measurement: fitted relative affinity; shared flanks, not repeated: GCCTAGCAC … GTCTTGATTCGCTTGACGCTGCTG
Target: Interferon regulatory factor 7, full length, phosphomimetic (IRF7, Homo sapiens, UniProt Q92985, residues 1-503, S471D/S472D/S475D/S476D/S477D/S483D/S484D/S487D)
UniProt Q92985, sequence (whole entry, unmodified, looked up): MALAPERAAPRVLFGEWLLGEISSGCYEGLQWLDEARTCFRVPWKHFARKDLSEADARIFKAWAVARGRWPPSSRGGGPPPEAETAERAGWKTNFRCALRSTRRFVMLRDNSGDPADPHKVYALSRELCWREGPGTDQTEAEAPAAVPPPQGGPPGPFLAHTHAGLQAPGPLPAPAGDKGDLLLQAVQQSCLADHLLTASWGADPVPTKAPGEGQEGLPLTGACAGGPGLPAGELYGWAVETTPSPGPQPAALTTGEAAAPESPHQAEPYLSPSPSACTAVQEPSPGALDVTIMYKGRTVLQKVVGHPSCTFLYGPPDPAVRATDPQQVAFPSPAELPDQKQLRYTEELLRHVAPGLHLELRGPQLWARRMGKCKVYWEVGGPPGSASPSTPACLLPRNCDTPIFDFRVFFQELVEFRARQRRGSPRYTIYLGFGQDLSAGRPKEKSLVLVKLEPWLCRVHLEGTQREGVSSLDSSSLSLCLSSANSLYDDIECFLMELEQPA
ATATATATATTATATATTTATGTGCTA: 0.375 z-score
TTAGGTTTCGACTATCGGTCAGTGCTA: 3.12 z-score
CTGCTGGCCTGTTGCTGGAAGTGCTAG: -0.542 z-score
TTAGATTTCGGCACTGGATTAGTGCTA: 0.237 z-score
CAGATGGAATTAAGAAGATGGTGCTAG: -0.775 z-score
TTAGGTATCCTTTTCCTTTGGTGCTAG: 1.81 z-score
TTAGGTTCCGGTTCCGGTTAGTGCTAG: 3.33 z-score
GAAGGTTTCGGTTCCGGGACGTGCTAG: 10.8 z-score
GACGGTTTCCTATTCCTGACGTGCTAG: 3.56 z-score
TTAGATATCAGCCTGGATTAGTGCTAG: -0.216 z-score
GACAGTTCCGGTTTCGGGACGTGCTAG: 6.55 z-score
ATAGGTATCGACTATCGGTTAGTGCTA: 0.607 z-score
GACGATCTCAGTTTGGAGACGTGCTAG: 0.119 z-score
TTAGGTCGCGGACTGGGTTAGTGCTAG: -0.63 z-score
TTCATTATTGTCTTCCCCATGTGCTAG: 1.86 z-score
TTAGGTTTCGGGATTCGGTTAGTGCTA: 5.81 z-score
GCATTTTTTTTTTCTACTTCGTGCTAG: 3.07 z-score
GACGGACTGCTCCTGCTGACGTGCTAG: -0.475 z-score
CAATATTTGCAACATCCCAATGTGCTA: 0.825 z-score
TCAAAAATGATTTTTTTACTGTGCTAG: -0.179 z-score
TGAGGACTGGGGTATCGGTTAGTGCTA: -0.656 z-score
TCAGGCTTAGTTTGTCAAACTGTGCTA: -0.44 z-score
ATTTTTTTCTAAGTAAACCCGTGCTAG: 0.399 z-score
GCGATTTGAGGAGCTCGCTCGTGCTAG: 1.53 z-score
GAAGGTATCGACTATCGGGACGTGCTA: -0.21 z-score

Some of these lines once more (series 3):
ATCAAGTC: 0.159
AAACTTGT: 0.304
CCGGCGCC: -0.338
AGAGTTAC: 0.0354
CGAAACCA: 0.0811
